Measured values gathered from unrelated publications.
Lines come from different studies, so protocols differ. Values joined by “and” are separate records of one study, mostly repeats; a detail may differ. ± marks the error that the study gave.

SMILES	tested on	test	test system	setting	measurement	result
Cn1cnc(Cn2c(=O)[nH]/c(=N\c3cc4cn(C)nc4cc3Cl)n(Cc3cc(F)c(F)cc3F)c2=O)n1			healthy Japanese adults, plasma	oral, 125 mg, day 5, fasted, with midazolam	AUC(0-tau)	424 µg·h/mL
CC(C)(C)[C@H](NC(=O)C(F)(F)F)C(=O)N1C[C@H]2[C@@H]([C@H]1C(=O)N[C@H](C#N)C[C@@H]1CCNC1=O)C2(C)C			human, fasted	oral, 500 mg single dose, 28 days, no ritonavir	participants discontinued due to adverse events	1%
CNC(=O)[C@@H](NC(=O)[C@H](CC(C)C)[C@H](O)C(=O)NO)C(C)(C)C	snake venom metalloproteinase	proteolytic activity, inhibitor	Daboia russelii, venom MP	with: azocasein	IC50	1.5 µM and 1.52 µM
C[C@@H]1Cc2c(Cl)cc(C(=O)N[C@H](Cc3ccccc3)C(=O)O)c(O)c2C(=O)O1			chicken embryo	in ovo injection, 0.75 µg/egg	body weight to egg weight ratio	73.1 ± 3.8
Cn1cnc(Cn2c(=O)[nH]/c(=N\c3cc4cn(C)nc4cc3Cl)n(Cc3cc(F)c(F)cc3F)c2=O)n1			human, mild renal impairment	oral, 375 mg, decreased GFR TEAE, mild severity	patients with adverse event	0%
Cc1cc(C)c(CNC(=O)c2cc(Cl)c3c(c2C)O[C@@](C)([C@H]2CC[C@H](N(C)C)CC2)O3)c(=O)[nH]1			relapsed/refractory NHL patients	oral, 200 mg once daily, onset after cycle 1 day 1	adverse event COVID-19	20.8%
Cc1cc(C)c(CNC(=O)c2cc(Cl)c3c(c2C)O[C@@](C)([C@H]2CC[C@H](N(C)C)CC2)O3)c(=O)[nH]1			human, relapsed/refractory NHL	concentration not given, all TEAEs, grade 3	COVID-19 pneumonia incidence	1%
CC[C@H](C)[C@H](NC(=O)[C@H](CC(C)C)NC(=O)[C@H](Cc1c[nH]c2ccccc12)NC(=O)[C@H](CCC(N)=O)NC(=O)[C@@H](NC(=O)[C@H](Cc1ccccc1)NC(=O)[C@H](C)NC(=O)[C@H](CCCCNC(=O)COCCOCCNC(=O)COCCOCCNC(=O)CC[C@H](NC(=O)CCCCCCCCCCCCCCCCCCC(=O)O)C(=O)O)NC(=O)[C@H](CCC(N)=O)NC(=O)[C@H](C)NC(=O)[C@@H](NC(=O)[C@H](CCCCN)NC(=O)[C@H](CC(=O)O)NC(=O)[C@H](CC(C)C)NC(=O)C(C)(C)NC(=O)[C@@H](NC(=O)[C@H](CO)NC(=O)[C@H](Cc1ccc(O)cc1)NC(=O)[C@H](CC(=O)O)NC(=O)[C@H](CO)NC(=O)[C@@H](NC(=O)[C@H](Cc1ccccc1)NC(=O)[C@@H](NC(=O)CNC(=O)[C@H](CCC(=O)O)NC(=O)C(C)(C)NC(=O)[C@@H](N)Cc1ccc(O)cc1)[C@@H](C)O)[C@@H](C)O)[C@@H](C)CC)[C@@H](C)CC)C(C)C)C(=O)N[C@@H](C)C(=O)NCC(=O)NCC(=O)N1CCC[C@H]1C(=O)N[C@@H](CO)C(=O)N[C@@H](CO)C(=O)NCC(=O)N[C@@H](C)C(=O)N1CCC[C@H]1C(=O)N1CCC[C@H]1C(=O)N1CCC[C@H]1C(=O)N[C@@H](CO)C(N)=O			healthy subjects	all MAD doses	subjects with abdominal distension	14.3%
O=C[C@H](C[C@@H]1CCNC1=O)NC(=O)[C@H](CC1CCCCC1)NC(=O)c1cc2ccccc2[nH]1			dog, plasma	intravenous, 4 mg/kg	AUC	7.13 µg·h/mL
CC(C)C(=O)OC[C@H]1O[C@@H](n2ccc(NO)nc2=O)[C@H](O)[C@@H]1O			rat plasma	100 µM, 1 h, no CES inhibitor	remaining compound	0%
Nc1ncnc2c([C@@H]3N[C@H](CO)[C@@H](O)[C@H]3O)c[nH]c12	Marburg virus	viral RNA in cell lysate	HeLa, Musoke	6.3 µM, 1 h	inhibition	73.3%
NC(=S)N/N=C(/c1cccc(O)c1)c1cccc(Br)c1	Replicase polyprotein 1ab, main protease (rep, Severe acute respiratory syndrome coronavirus 2, UniProt P0DTD1)	viral replication, mKate2 reporter	SARS-CoV-2	20 µM	inhibition	1.01%

A few entries again:
SMILES	tested on	test	test system	setting	measurement	result
Cn1cnc(Cn2c(=O)[nH]/c(=N\c3cc4cn(C)nc4cc3Cl)n(Cc3cc(F)c(F)cc3F)c2=O)n1			healthy Japanese adults, plasma	oral, 125 mg, day 5, fasted, with midazolam	AUC(0-tau)	424 µg·h/mL
Cn1cnc(Cn2c(=O)[nH]/c(=N\c3cc4cn(C)nc4cc3Cl)n(Cc3cc(F)c(F)cc3F)c2=O)n1			human, mild renal impairment	oral, 375 mg, decreased GFR TEAE, mild severity	patients with adverse event	0%
